Assay results collected from several papers.
Each line is one published result; not all experiments were run side by side. ± marks the error that the study gave.
Organism: Salmonella typhimurium

Compound | assay | test system | conditions | how to read | measurement | value
CNC(=O)c1c(N(C)N=O)ncn1C | mutagenicity, Ames plate incorporation | TA98 | 50 µg/plate, without S9, methanol |  | revertant colonies per plate | 25 ± 4
COc1cccc(-c2n[nH]c(SCc3ccccn3)n2)c1OC | Ames test, preincubation | TA100 | 0.13 mg/plate, without S9 |  | revertant colonies per plate | 128
O=[N+]([O-])c1ccc(N2CCN(CCC(O)c3ccc(F)cc3)CC2)c(C(F)(F)F)c1 (stereo not drawn) | genotoxicity, SOS/umu test | TA1535/pSK1002 | 0.004 mg/mL, 4 h, with S9, full range |  | induction factor | 1.1
CN(N=O)c1ccc(F)cc1 | mutagenicity, Ames plate incorporation | TA98 | 1500 µg/plate, 3 d, without S9, methanol |  | revertant colonies per plate | 23 ± 5
O=[N+]([O-])c1ccc(N2CCC(NCCC(O)c3ccc(F)c4ccccc34)CC2)c(C(F)(F)F)c1 (stereo not drawn) | genotoxicity, SOS/umu test | TA1535/pSK1002 | 0.002 mg/mL, 4 h, without S9, full range |  | induction factor | 0.52
O=NN1CCN(C2CCCC2)CC1 | mutagenicity, Ames plate incorporation | TA1537 | 5000 µg/plate, 3 d, without S9, methanol |  | revertant colonies per plate | 10 ± 3
O=[N+]([O-])c1ccc(NC2CCNCC2)c(C(F)(F)F)c1 | SOS/umu test | TA1535/pSK1002 | 0.016 mg/mL, 4 h, with S9, full range |  | survival | 102%
N#C[C@@]1(n2ccc(N)nc2=O)O[C@H](CO)[C@@H](O)[C@H]1O |  | TA98 | 2.5 µM, without S9 |  | viability | 93%
Cc1cc(C(=O)NC(C)(C)COc2cccc3c2C(N)=NS(=O)(=O)N3)cc(C)n1 | Ames test, confirmatory | TA1535 | 3333 µg/plate, added: rat liver S9 | relative to: solvent control | revertant ratio | 0.9
OC(CCN1CC=C(c2ccc(F)cc2)CC1)c1ccc(F)c2ccccc12 (stereo not drawn) | SOS/umu test | TA1535/pSK1002 | 0.031 mg/mL, 4 h, without S9, lower range |  | survival | 27.7%
CN(CC(C)(C)C)N=O | mutagenicity, Ames plate incorporation | TA100 | 2500 µg/plate, without S9, methanol |  | revertant colonies per plate | 211 ± 21
CC(=O)N1CCC(C(=O)N2CCN3C(=O)c4cc(-c5ccccc5)ccc4NC(=O)C3C2)CC1 (stereo not drawn) |  | TA1537 | 500 µg/plate |  | revertants per plate | 13

For quick reference, copied from above:
Compound | assay | test system | conditions | how to read | measurement | value
CN(CC(C)(C)C)N=O | mutagenicity, Ames plate incorporation | TA100 | 2500 µg/plate, without S9, methanol |  | revertant colonies per plate | 211 ± 21
Cc1cc(C(=O)NC(C)(C)COc2cccc3c2C(N)=NS(=O)(=O)N3)cc(C)n1 | Ames test, confirmatory | TA1535 | 3333 µg/plate, added: rat liver S9 | relative to: solvent control | revertant ratio | 0.9
